Measurements of several laboratories.
Each line is one published result; not all experiments were run side by side. ± marks the error that the study gave.

CC(C)N1CCC(c2ccc(Nc3ccnc4cc(Cl)ccc34)cc2)CC1  IC50 (Plasmodium falciparum; parasite growth, SYBR Green; DD2; 72 h, drug-resistant strain, blood stage): 0.01 µM
O=C(Nc1ccc([N+](=O)[O-])cc1Cl)c1cc(Cl)ccc1O  IC50 (Zika virus; viral replication, focus-forming; iPSC-derived human astrocytes, PRVABC59): ~0.2 µM
N=C(N)c1ccc(-c2ccc(-c3ccc(C(=N)N)s3)s2)cn1  IC50 (Trypanosoma brucei; parasite growth; RHODESIENSE STIB900): ≤ 0.006 µM
CS(=O)(=O)c1ccc(-c2cnc(N)c(-c3ccc(C(F)(F)F)nc3)c2)cc1  IC50 (Plasmodium cynomolgi; liver-stage schizont growth; primary rhesus hepatocytes; compound added at 3 h, read day 0): 0.064 µM
O=C1CSC(=S)N1/N=C/c1c[nH]c2ccc([N+](=O)[O-])cc12  IC50 (Leishmania major; parasite growth, resazurin; THP-1; 24 h, intracellular, amastigote): > 10 µM
CCN1CCN(c2ccc(Nc3ccnc4cc(C(F)(F)F)ccc34)cc2)CC1  IC50 (Plasmodium falciparum; parasite growth, SYBR Green; D6; 72 h, blood stage): 0.015 µM
O=C1CSC(=S)N1/N=C/c1cn(Cc2ccccc2)c2ccc([N+](=O)[O-])cc12  IC50 (Trypanosoma congolense; trypomastigotes, IL3000): > 60 µM
O=C(Nc1cccc(CO)c1)c1ccccc1Sc1ccc([N+](=O)[O-])cc1  IC50 (Human immunodeficiency virus 1; viral replication; MT4; 7 days): 52 µM
O=C1NC(=S)S/C1=C\c1cn(Cc2ccc(F)cc2)c2ccc([N+](=O)[O-])cc12  IC50 (Trypanosoma congolense; trypomastigotes, IL3000): 2.52 ± 0.73 µM
COc1ccccc1NC(=O)c1ccccc1Sc1ccc(N)cc1  IC50 (Human immunodeficiency virus 1; viral replication; MT4; 7 days): > 100 µM
O=c1[nH]c2c([N+](=O)[O-])cccc2cc1-c1cccnc1  IC50 (Trypanosoma brucei; parasite growth, resazurin; 74 h, trypomastigote): 2.8 µM
C#Cc1cccc(Nc2ncnc3cc(OC)c(OCCCCCCC(=O)NO)cc23)c1  IC50 (Lucilia cuprina; larval weight gain; LS strain, larvae on impregnated cotton wool; 24 h): > 1000 µg
Clc1ccc2c(Nc3ccc(N4CCCCC4)cc3)ccnc2c1  IC50 (Plasmodium falciparum; parasite growth, SYBR Green; DD2; 72 h, drug-resistant strain, blood stage): 0.2 µM
O=[N+]([O-])c1ccc2[nH]ccc2c1  IC50 (Leishmania major; parasite growth, resazurin; THP-1; 72 h, intracellular, amastigote): > 10 µM
Cn1cc(CNCC2CCN(c3ncc(C(=O)NO)cn3)CC2)c2ccccc21  IC50 (Lucilia cuprina; larval weight gain; LS strain, larvae on impregnated cotton wool; 24 h): 100 µg
O=Cc1ccccc1-c1cc2cccc([N+](=O)[O-])c2[nH]c1=O  IC50 (Trypanosoma brucei; parasite growth, resazurin; 74 h, trypomastigote): 7.5 µM
C#CCn1cc(/C=C2\SC(=S)NC2=O)c2cc([N+](=O)[O-])ccc21  IC50 (Leishmania major; parasite growth, resazurin; THP-1; 72 h, intracellular, amastigote): > 10 µM
CCCCSC[C@H]1CN(Cc2c[nH]c3c(N)ncnc23)C[C@@H]1O  IC50 (Campylobacter jejuni; colony formation; Mueller-Hinton agar; 6 days): 1.5 ± 0.8 µM
N=C(N)c1ccc(N=NNc2ccc(C(=N)N)cc2)cc1  IC50 (Trypanosoma congolense; trypomastigotes, IL3000): 0.09 µM
C/C=C1\NC(=O)[C@H]2CSSCC/C=C/[C@H](CC(=O)N[C@H](C(C)C)C(=O)N2)OC(=O)[C@H](C(C)C)NC1=O  IC50 (Lucilia cuprina; larval weight gain; LS strain, larvae on impregnated cotton wool; 24 h): 0.124 µg

Excerpt of the above:
O=Cc1ccccc1-c1cc2cccc([N+](=O)[O-])c2[nH]c1=O  IC50 (Trypanosoma brucei; parasite growth, resazurin; 74 h, trypomastigote): 7.5 µM
C#CCn1cc(/C=C2\SC(=S)NC2=O)c2cc([N+](=O)[O-])ccc21  IC50 (Leishmania major; parasite growth, resazurin; THP-1; 72 h, intracellular, amastigote): > 10 µM
CCCCSC[C@H]1CN(Cc2c[nH]c3c(N)ncnc23)C[C@@H]1O  IC50 (Campylobacter jejuni; colony formation; Mueller-Hinton agar; 6 days): 1.5 ± 0.8 µM
